Published values from different studies.
Numbered parts are unrelated; each lists some results of a single study.

Study 1
Target: Histone acetyltransferase KAT6A, winged helix 1, GST fusion (KAT6A, Homo sapiens, UniProt Q92794, residues 1-85)
Method: protein binding microarray
Form: double-stranded DNA, one strand shown
Sample: in vitro
Tested at: not given
Notes: 8-mer, flanks averaged, mean of 2 arrays, mostly near background
Relative to: not given
Direction: higher = stronger binding
Target sequence (chain): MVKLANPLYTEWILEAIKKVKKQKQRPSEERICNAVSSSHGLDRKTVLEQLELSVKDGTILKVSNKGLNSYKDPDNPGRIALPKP
For `CAGGTAAG`, the E-score was -0.15.
The E-score of `AGCGTTAC` is reported as 0.0556.
For `ATGAGATG`, the E-score was -0.184.
`TAAAGTTA` gave an E-score of -0.0369.
`CAGTAAGC` gave an E-score of -0.0644.
With `CCATAAAG` the E-score was -0.217.
`CCCGCCCC` gave an E-score of 0.355.

Study 2
Target: Centromere-binding protein 1, full length, His-tagged (CBF1, Saccharomyces cerevisiae, UniProt P17106, residues 1-351)
Sequence of UniProt P17106 (whole entry, looked up): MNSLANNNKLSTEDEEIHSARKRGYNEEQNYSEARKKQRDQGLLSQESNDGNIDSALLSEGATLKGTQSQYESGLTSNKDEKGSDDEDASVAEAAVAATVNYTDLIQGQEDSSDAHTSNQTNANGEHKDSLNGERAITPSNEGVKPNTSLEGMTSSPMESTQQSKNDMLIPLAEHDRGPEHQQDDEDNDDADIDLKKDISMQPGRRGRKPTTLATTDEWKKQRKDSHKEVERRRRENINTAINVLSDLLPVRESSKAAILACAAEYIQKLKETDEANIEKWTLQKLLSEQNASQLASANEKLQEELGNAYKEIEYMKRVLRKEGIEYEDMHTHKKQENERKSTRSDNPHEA
Method: competition protein-binding microarray
Form: double-stranded DNA, one strand shown
Sample: in vitro
Tested at: 2 µM
Notes: whole 60-bp probe, lowest competitor level
With: Pho4 competitor, 0.05 µM
Direction: higher = stronger binding
For `CGACTTCAGCCAAATAACGTGGAGGCTCTGGAACAAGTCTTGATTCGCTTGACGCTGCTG`, the fluorescence intensity was 71.9 a.u.
`TTTAATTTAATTCGGCATGTGGCCGGCAGGGTAATGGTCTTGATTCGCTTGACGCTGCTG` has a fluorescence intensity of 107 a.u.
With `GTAGTTATGGAAGTGCCCGTGGACCATGCCTTCTTTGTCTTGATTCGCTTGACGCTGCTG` the fluorescence intensity was 66 a.u.
`AGTCGTTTGAGGGCAAACGTGTGAAAATCTCCGGAAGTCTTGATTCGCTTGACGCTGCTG` gave a fluorescence intensity of 85.8 a.u.
The fluorescence intensity of `CTAACGAAGGTTTGACTTGTGGGTGACAAGCCAAGTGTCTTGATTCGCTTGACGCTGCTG` is reported as 82.1 a.u.

Study 3
Target: Interferon regulatory factor 7, full length, phosphomimetic (IRF7, Homo sapiens, UniProt Q92985, residues 1-503, S471D/S472D/S475D/S476D/S477D/S483D/S484D/S487D)
Sequence of UniProt Q92985 (whole entry, unmodified, looked up): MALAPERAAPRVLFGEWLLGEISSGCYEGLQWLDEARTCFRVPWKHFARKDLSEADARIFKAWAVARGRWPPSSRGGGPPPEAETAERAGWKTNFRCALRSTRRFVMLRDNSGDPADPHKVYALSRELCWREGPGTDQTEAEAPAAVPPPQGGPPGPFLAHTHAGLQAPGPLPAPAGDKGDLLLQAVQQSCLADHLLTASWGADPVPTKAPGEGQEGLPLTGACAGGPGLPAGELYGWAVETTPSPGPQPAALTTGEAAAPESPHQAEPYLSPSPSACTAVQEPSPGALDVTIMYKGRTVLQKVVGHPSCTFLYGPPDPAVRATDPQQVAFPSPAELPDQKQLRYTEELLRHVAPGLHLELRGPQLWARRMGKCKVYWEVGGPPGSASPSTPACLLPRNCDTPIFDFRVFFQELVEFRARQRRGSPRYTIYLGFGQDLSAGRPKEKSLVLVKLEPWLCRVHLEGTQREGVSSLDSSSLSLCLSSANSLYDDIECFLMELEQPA
Method: protein-binding microarray
Form: double-stranded DNA, one strand shown
Sample: in vitro
Tested at: 2200 nM top
Notes: 60-bp whole probe
With: salmon DNA 0.4 mg/ml
Relative to: random background probes
Direction: higher = stronger binding
Constant ends, left off below: GCCTAGCAC … GTGCTAGGTCTTGATTCGCTTGACGCTGCTG
Under “fitted relative affinity”, `AAAAATTAGTGTTTCCCCTA` is recorded as 0.0219 z-score.
`GACGAACTGAGTTTCGATAC` — result for “fitted relative affinity”: 3.37 z-score.
For `GACGGACTGCTACTGCTGGC`, “fitted relative affinity” read -0.469 z-score.
For `TTAGGTATCGATTTCGGTTA`, “fitted relative affinity” read 3.88 z-score.
`TCAACTCTCTACATGGGACT`: “fitted relative affinity” 0.89 z-score.

Further values, each from its own experiment
`PhoQ, residues 284 288 289 292 302 303 GASLAW` gave a fold induction of 0.793 (PhoP, residues 12 14 15 18 19 NIMAP (Escherichia coli, UniProt P23836); Sort-seq, refers to: YFP reporter; E. coli; PhoQ-PhoP variant library, with: 10 µM Mg2+; relative to: high Mg2+ state, higher = stronger signaling).
